Results pooled from the literature.
Each line is one published result; not all experiments were run side by side. Numbers after ± are the reported error.

| Compound | cell line | assay | conditions | how to read | measurement | result |
| --- | --- | --- | --- | --- | --- | --- |
| Cn1cc(-c2cc(N3CCCCS3(=O)=O)ccc2N[C@H]2CC[C@H](C)CC2)c2cc[nH]c2c1=O (stereo in doubt) | COLO-680N | cell growth or viability, CCK-8 | 72 h | – | GI50 | 4 µM |
| COc1cc(CNC(=O)C[C@H](C)CCC=C(C)C)ccc1OCc1cn(-c2ccc(C#N)cc2)nn1 | SK-MEL-28 melanoma cells | SRB | 10 µM, 48 h | – | growth percent | 85.4% |
| C(=C/c1ccccc1)/c1ccccc1 | U-937 | apoptosis, measured: caspase-3 activity | 24 h, lowest dose with significant induction | reference: vehicle | lowest effective concentration | 2 µM |
| O=C(O)CCC(NP(=O)(O)OCCC[C@@H](NC(=O)CC[C@H](NC(=O)CCCCCNC(=O)c1ccc([18F])cc1)C(=O)O)C(=O)O)C(=O)O (stereo partly drawn) | CWR22Rv1 | – | concentration not given, 1 h | – | cell uptake | 0.56 ± 0.05% |
| Cc1cc2c(c(=O)o1)C=C1CCC(C(C)CNCc3ccc(O)cc3)CC1O2 (stereo not drawn) | MC65 | western blot, measured: Aβ-OC high molecular weight oligomers | concentration not given, 24 h after tetracycline withdrawal | – | reduction of Aβ oligomers | 80% |
| COc1cc(CNC(=O)C[C@H](C)CCC=C(C)C)ccc1OCc1cn(-c2ccc([N+](=O)[O-])cc2)nn1 | COLO 205 | SRB | 10 µM, 48 h | – | growth percent | 122% |
| O=C(Cn1c(=O)c(Cc2ccccc2)nc2ccccc21)NN1C(=O)c2ccccc2C1=O | HCT-116 | qRT-PCR, measured: HIF-1α | concentration not given, 72 h | reference: untreated | mRNA level | 0.3 ± 0.011 fold |
| CC(=O)N[C@H](C(=O)N[C@H](C(=O)N[C@@H](CCCNC(=N)N)C(=O)N1Cc2ccccc2C[C@H]1C(=O)N[C@@H](Cc1ccccc1)C(N)=O)C1CCCCC1)C(C)C | BC-3 T cells | inhibitor, CFSE dilution | concentration not given, 5 days, added: MBP87-99 | – | T cell proliferation | inhibited |
| CCCCCCCCCCCCCCCC(=O)OCC(CSC[C@H](N)C(=O)N[C@@H](CO)C(=O)N[C@@H](CCCCN)C(=O)N[C@@H](CCCCN)C(=O)N[C@@H](CCCCN)C(=O)N[C@@H](CCCCN)C(=O)NCCCCCC(=O)N[C@@H](CCCCN)C(=O)N[C@@H](CC(C)C)C(=O)N[C@H](C(=O)N[C@@H](Cc1ccccc1)C(=O)N[C@@H](Cc1ccccc1)C(=O)N[C@@H](Cc1ccc2ccccc2c1)C(=O)O)C(C)C)OC(=O)CCCCCCCCCCCCCCC (stereo partly drawn) | BV-2 | RT-qPCR, measured: Marco | 1.0 µM, 12 h | – | mRNA level | increased |
| C[C@H](NC(=O)[C@H](Cc1c[nH]c2ccccc12)NC(=O)[C@@H](N)CCCNC(=N)N)C(=O)N[C@@H](Cc1c[nH]c2ccccc12)C(=O)N[C@@H](CCCNC(=N)N)C(=O)N[C@@H](Cc1c[nH]c2ccccc12)C(=O)N[C@@H](CCC(N)=O)C(=O)N[C@@H](Cc1c[nH]c2ccccc12)C(=O)N[C@@H](CCCNC(=N)N)C(N)=O | young human fibroblasts primary | MTT | concentration not given, 24 h, 37 °C, 5% FBS | reference: untreated cells | viability | 91 ± 5% |
| COc1cc(O)cc(CCc2cc(Cl)ccc2O)c1 | chemoresistant colorectal cancer cells | NHEJ reporter, GFP flow cytometry | concentration not given | – | NHEJ efficiency reduction | ≤ 65% |
| CCNc1ccc(-c2nc3ccccc3n3cccc23)cc1 | HEK293 DR-GFP reporter | homologous recombination | concentration not given | – | inhibition | ~50% |
| Cc1cc([C@H](C(=O)N2C[C@H](O)C[C@H]2C(=O)N[C@@H](CC(=O)N2CCC(N3CCC(C#Cc4ccc(C(=O)N[C@H]5C(C)(C)[C@H](Oc6ccc(C#N)c(Cl)c6)C5(C)C)cc4)CC3)CC2)c2ccc(-c3scnc3C)cc2)C(C)C)on1 | HCC1428 | flow cytometry | 72 h | – | apoptosis-inducing concentration | 0.25 µM |
| COc1cc(CNC(=O)C[C@H](C)CCC=C(C)C)ccc1OCc1cn(-c2cccc(C(F)(F)F)c2)nn1 | NCI/ADR-RES | SRB | 10 µM, 48 h | – | growth | 44% |
| C[C@H](NC(=O)[C@H](CCC(N)=O)NC(=O)[C@H](Cc1c[nH]c2ccccc12)NC(=O)[C@@H](N)CCCNC(=N)N)C(=O)N[C@@H](CCCNC(=N)N)C(=O)N[C@@H](Cc1c[nH]c2ccccc12)C(=O)N[C@@H](CCC(N)=O)C(=O)N[C@@H](Cc1c[nH]c2ccccc12)C(=O)N[C@@H](CCCNC(=N)N)C(N)=O | MDA-MB-468 | MTT | concentration not given, 48 h, 37 °C, 5% FBS | reference: untreated cells | viability | 51 ± 9% |
| CO[C@H]1O[C@H](COC(c2ccccc2)(c2ccccc2)c2ccccc2)[C@@H](OS(=O)(=O)c2ccccc2)[C@H](OS(=O)(=O)c2ccccc2)[C@H]1OS(=O)(=O)c1ccccc1 | Ehrlich | cell growth or viability, MTT | 250 µg/mL, 24 h | – | inhibition | 8.31% |
| COc1ccc([C@@H]2CC(=O)c3c(O)cc(O[C@@H]4O[C@H](CO[C@@H]5O[C@@H](C)[C@H](O)[C@@H](O)[C@H]5O)[C@@H](O[C@H]5O[C@H](CO)[C@@H](O)[C@H](O)[C@H]5O)[C@H](O)[C@H]4O)cc3O2)cc1O | A549 | cell migration, scratch | 150 µg/mL, 72 h | – | gap closure | 5.99 ± 0.26% |
| CCOC(=O)C1NC(c2ccc[n+](C)c2)C23c4c5c6c7c8c9c(c%10c%11c2c2c4c4c%12c5c5c6c6c8c8c%13c9c9c%10c%10c%11c%11c2c2c4c4c%12c%12c5c5c6c8c6c8c%13c9c9c%10c%10c%11c2c2c4c4c%12c5c6c5c8c9c%10c2c45)C713 (stereo not drawn) | BC-3 | reporter gene, measured: TCF4 Wnt/β-catenin reporter | 20 µM, 24 h | reference: DMSO | remaining activity | 60% |
| CC(=O)OC[C@H]1O[C@@H](Sc2sc(C(=O)c3ccc(C)cc3)c(N)c2-c2nc3ccccc3s2)[C@H](OC(C)=O)[C@@H](OC(C)=O)[C@H]1OC(C)=O | NCI-H522 | SRB | 10 µM, 48 h | reference: untreated | growth | 82.6% |
| COc1cc(CNC(=O)C[C@H](C)CCC=C(C)C)ccc1OCc1cn(-c2ccccc2F)nn1 | SK-MEL-28 melanoma cells | SRB | 10 µM, 48 h | – | growth percent | 94.9% |
| CCCCN(CCCC)CC(O)COc1c2ccoc2c(OC)c2oc(CC)cc(=O)c12 (stereo not drawn) | HTB-140 | – | 25 µM, 72 h | – | LDH release | 24.6% |

| Compound | cell line | assay | conditions | how to read | measurement | result |
| --- | --- | --- | --- | --- | --- | --- |
| COc1cc(CNC(=O)C[C@H](C)CCC=C(C)C)ccc1OCc1cn(-c2ccccc2[N+](=O)[O-])nn1 | SNB-75 CNS cancer cells | SRB | 10 µM, 48 h | – | growth percent | 56.6% |
| COCc1nc(C(F)(F)F)[nH]c1-c1cc(C(=O)N2CC(c3ccc(C#N)cc3)C2)c(C)cc1C | NCI-H520 | α-tubulin palmitoylation, acyl-biotin exchange, measured: palmitoyl-α-tubulin | concentration not given | – | inhibition | 27% |
| CS(C)=O.CS(C)=O.[Cl][Cu][Cl].c1ccc(-c2nnc(-c3ccc4c(c3)OCO4)[nH]2)nc1 | T24 | annexin V/PI flow cytometry | 5.3 µM, 24 h | – | early apoptotic cells | 77.8% |
| COc1cc2c(cc1C)NC(=O)C2=Cc1c(Cl)[nH]c2c1ccc1ccccc12 | CNS cancer subpanel of NCI-60 | – | 48 h | – | TGI | 3.39 µM |
| Cc1cnc2c(ccc3c(C)c(C)cnc32)c1C.O=C([O-])Cc1ccccc1Nc1c(Cl)cccc1Cl.O=C([O-])Cc1ccccc1Nc1c(Cl)cccc1Cl.[Mn+2] | HMLER-shEcad | – | 0.25 µM, 6 h | reference: untreated | peak intracellular ROS level | 3.4 fold |
| COc1cc(CNC(=O)C[C@H](C)CCC=C(C)C)ccc1OCc1cn(-c2ccc(Cl)c(Cl)c2)nn1 | UO-31 | SRB | 10 µM, 48 h | – | growth percent | 60.8% |
| Cc1c(C)c(C)[c-](C)c1C.[C-]#[O+].[C-]#[O+].[C-]#[O+].[Cl-].[Cl-].[Cl-].[Ir+3].[Re+].c1cnc(-c2ncccn2)nc1 | MDA-MB-468 | annexin V/PI flow cytometry | 25 µM, 48 h | – | late apoptotic cells | 4.19% |
| C=CC(OC(C)=O)c1ccc(OC(C)=O)c(OC)c1 (stereo not drawn) | MDA-MB-231 | Western blot | IC50, 24 h | reference: untreated | p53 protein level | 3.4 fold |
| CC/C=C\C/C=C\C/C=C\C/C=C\C/C=C\C/C=C\CCC(=O)Nc1ccn(C2OC(CO)C(O)C2(F)F)c(=O)n1 (stereo not drawn) | Malme-3M | cell growth or viability, SRB | – | – | GI50 | 10.1 µM |
| CC(=O)Oc1ccccc1C(=O)[O][Pt]([NH2])([NH2])([Cl])([Cl])[O]C(=O)C(Cl)Cl | HEK293 and BCPAP | cytotoxicity, MTT | – | reference: IC50 HEK293 over IC50 BCPAP | selectivity index | 1.5 |
| COc1ccc([C@@H]2CC(=O)c3c(O)cc(O[C@@H]4O[C@H](CO[C@@H]5O[C@@H](C)[C@H](O)[C@@H](O)[C@H]5O)[C@@H](O)[C@H](O)[C@H]4O)cc3O2)cc1O | A549 | cell migration, scratch | 100 µg/mL, 72 h | – | gap closure | 12.4 ± 0.48% |
| CCC(=C(c1ccc(Cl)cc1)c1ccc(OCCCN(C)C)cc1)c1ccc(OC)cc1 | Malme-3M | cell growth or viability, SRB | – | – | GI50 | 1.2 µM |
| CCCC(CCC)C(=O)[O][Pt]([NH2])([NH2])([Cl])([Cl])[O]C(=O)C(C)c1ccc(CC(C)C)cc1 (stereo not drawn) | six human cancer lines | cytotoxicity, MTT | – | reference: oxaliplatin | IC50 fold lower | ~3 fold |
| C[C@H](N)C(=O)N[C@@H](Cc1c[nH]c2ccccc12)C(=O)N[C@@H](CCC(N)=O)C(=O)N[C@@H](Cc1c[nH]c2ccccc12)C(=O)N[C@@H](CCCNC(=N)N)C(=O)N[C@@H](Cc1c[nH]c2ccccc12)C(=O)N[C@@H](CCC(N)=O)C(=O)N[C@@H](Cc1c[nH]c2ccccc12)C(=O)N[C@@H](CCCNC(=N)N)C(N)=O | young human fibroblasts primary | MTT | concentration not given, 24 h, 37 °C, 5% FBS | reference: untreated cells | viability | 100 ± 1% |
| C=C(CC)C(=O)c1ccc(OCC(=O)NCCNC(=O)COc2ccc(C(=O)C(=C)CC)c(Cl)c2Cl)c(Cl)c1Cl | SK-OV-3/DDP | cell growth, CCK-8 | 72 h | – | IC10 | 3.5 µM |
| C=C[C@H](OC(C)=O)c1ccc(OC(C)=O)cc1 | MDA-MB-231 | Western blot | concentration not given, 24 h | – | integrin beta1 decrease | 15.5% |
| O=C(CSc1nc2ccccc2s1)Nc1nonc1[N+](=O)[O-] | Ramos | LFQ mass spectrometry | 10 µM, 8 h | – | downregulated proteins | 269 count |
| COc1cc(/C=C/C(=O)/C=C(O)/C=C/c2ccc(OCC(=O)N3CCOCCOCCOCCOCCOCC3)c(OC)c2)ccc1OCC(=O)N1CCOCCOCCOCCOCCOCC1 | SK-LU-1 | cell growth or viability, SRB | 5 µM | – | inhibition | 39.3% |
| N#Cc1cccc(-c2ccc(=O)n(Cc3cccc(-c4ncc(OCC5CCN(CC(=O)NCCOCCNc6ccc7c(c6)C(=O)N(C6CCC(=O)NC6=O)C7=O)CC5)cn4)c3)n2)c1 (stereo not drawn) | EBC-1, Hs746T | Western blot, measured: phospho-MET | 10 and 100 nM, sustained 24 h | – | time to complete inhibition | 6 h |
| CC(=C(c1ccc(O)cc1)c1ccc(Cl)cc1)c1ccc(Cl)cc1 | Malme-3M | cell growth or viability, SRB | – | – | GI50 | 0.54 µM |
| CCn1nc2c(c1Nc1nc(-c3ccc(-n4cnc(C)c4)c(OC)n3)cs1)CCCC2 | SH-SY5Y-APP | ELISA | – | reference: Aβ40 IC50 over Aβ42 IC50 | selectivity ratio | > 3 fold |

A few entries again:
| Compound | cell line | assay | conditions | how to read | measurement | result |
| --- | --- | --- | --- | --- | --- | --- |
| COc1cc(CNC(=O)C[C@H](C)CCC=C(C)C)ccc1OCc1cn(-c2ccc(C#N)cc2)nn1 | SK-MEL-28 melanoma cells | SRB | 10 µM, 48 h | – | growth percent | 85.4% |
| C(=C/c1ccccc1)/c1ccccc1 | U-937 | apoptosis, measured: caspase-3 activity | 24 h, lowest dose with significant induction | reference: vehicle | lowest effective concentration | 2 µM |
| O=C(O)CCC(NP(=O)(O)OCCC[C@@H](NC(=O)CC[C@H](NC(=O)CCCCCNC(=O)c1ccc([18F])cc1)C(=O)O)C(=O)O)C(=O)O (stereo partly drawn) | CWR22Rv1 | – | concentration not given, 1 h | – | cell uptake | 0.56 ± 0.05% |
| Cc1cc2c(c(=O)o1)C=C1CCC(C(C)CNCc3ccc(O)cc3)CC1O2 (stereo not drawn) | MC65 | western blot, measured: Aβ-OC high molecular weight oligomers | concentration not given, 24 h after tetracycline withdrawal | – | reduction of Aβ oligomers | 80% |
| COc1cc(CNC(=O)C[C@H](C)CCC=C(C)C)ccc1OCc1cn(-c2ccc([N+](=O)[O-])cc2)nn1 | COLO 205 | SRB | 10 µM, 48 h | – | growth percent | 122% |
